Measured values from different studies.
A part holds a random share of what one study measured.

Study 1 — method: competition protein-binding microarray; form: double-stranded DNA, one strand shown; medium: in vitro; tested at: 2 µM; with: Pho4 competitor, 0.05 µM; direction: higher = stronger binding; constant ends, left off below: … GTCTTGATTCGCTTGACGCTGCTG
Target: Centromere-binding protein 1, full length, His-tagged (CBF1, Saccharomyces cerevisiae, UniProt P17106, residues 1-351)
UniProt P17106, sequence (whole entry, looked up): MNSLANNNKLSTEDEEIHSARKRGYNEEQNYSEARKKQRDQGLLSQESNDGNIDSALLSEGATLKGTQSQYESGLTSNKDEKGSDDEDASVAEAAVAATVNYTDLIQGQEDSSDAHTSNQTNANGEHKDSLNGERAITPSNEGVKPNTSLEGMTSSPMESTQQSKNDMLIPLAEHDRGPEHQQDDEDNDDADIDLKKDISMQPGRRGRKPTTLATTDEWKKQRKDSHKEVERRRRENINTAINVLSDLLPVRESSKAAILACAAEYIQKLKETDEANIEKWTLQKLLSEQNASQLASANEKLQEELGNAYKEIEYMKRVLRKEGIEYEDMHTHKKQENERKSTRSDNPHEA
Notes: whole 60-bp probe, lowest competitor level
| Oligonucleotide | fluorescence intensity |
| --- | --- |
| GTCTTGTCTCATTTTCACGTGCAGTTCCCCACTTCA | 758 a.u. |
| AAATTACTAAGTTGTTGTGTGGGTGACGCCGTATGA | 78.1 a.u. |
| CTGTCGTCGTAGGTTCTCGTGGTGATGACCTTACTA | 89.4 a.u. |
| GGTTTAACAGATCTGGACGTGATGGTTTTTTTTTTT | 107 a.u. |
| CATCATCATCATCATCCATATCAGTAATAGGTTTTC | 89.8 a.u. |
| GGCTCGCGCTAGAATCGTGTGCAGCAGCTCCACATC | 71.3 a.u. |
| CTAACGAAGGTTTTTCACGTGTATTACAAGCCAAGT | 731 a.u. |
| AAATTACTAAGTTGCTCAGTGGGTGACGCCGTATGA | 62.6 a.u. |

Study 2 — method: protein binding microarray; form: double-stranded DNA, one strand shown; medium: in vitro; tested at: not given; relative to: not given; direction: higher = stronger binding
Target: Histone acetyltransferase KAT6A, both winged helices, GST fusion (KAT6A, Homo sapiens, UniProt Q92794, residues 1-181)
Notes: 8-mer, flanks averaged, mean of 2 arrays, mostly near background
Target sequence (chain): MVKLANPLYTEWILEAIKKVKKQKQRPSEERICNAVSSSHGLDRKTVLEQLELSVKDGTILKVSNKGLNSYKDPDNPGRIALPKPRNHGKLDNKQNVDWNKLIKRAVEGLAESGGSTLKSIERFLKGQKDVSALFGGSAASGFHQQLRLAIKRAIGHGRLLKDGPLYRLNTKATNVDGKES
| Oligonucleotide | E-score |
| --- | --- |
| TCGGTAGA | 0.166 |
| TAATACTA | -0.0616 |
| ACTAGGGC | -0.119 |
| CAAAATCA | -0.0929 |
| CGAGCCCA | -0.0864 |
| CGAGACCG | 0.206 |
| ATCTCTTG | -0.165 |
| CGCTCCGA | 0.224 |
| CGCAAAGC | 0.221 |
| CGACATCC | 0.0915 |

Study 3 — method: protein-binding microarray; form: double-stranded DNA, one strand shown; medium: in vitro; tested at: 2540 nM top; notes: 60-bp whole probe; with: salmon DNA 0.4 mg/ml; relative to: random background probes; direction: higher = stronger binding; constant ends, left off below: GCCTAGCAC … GTCTTGATTCGCTTGACGCTGCTG
Target: Interferon regulatory factor 3, full length, phosphomimetic (IRF3, Homo sapiens, UniProt Q14653, residues 1-427, S386D/S396D/S398D/S402D/T404D/S405D)
UniProt Q14653, sequence (whole entry, unmodified, looked up): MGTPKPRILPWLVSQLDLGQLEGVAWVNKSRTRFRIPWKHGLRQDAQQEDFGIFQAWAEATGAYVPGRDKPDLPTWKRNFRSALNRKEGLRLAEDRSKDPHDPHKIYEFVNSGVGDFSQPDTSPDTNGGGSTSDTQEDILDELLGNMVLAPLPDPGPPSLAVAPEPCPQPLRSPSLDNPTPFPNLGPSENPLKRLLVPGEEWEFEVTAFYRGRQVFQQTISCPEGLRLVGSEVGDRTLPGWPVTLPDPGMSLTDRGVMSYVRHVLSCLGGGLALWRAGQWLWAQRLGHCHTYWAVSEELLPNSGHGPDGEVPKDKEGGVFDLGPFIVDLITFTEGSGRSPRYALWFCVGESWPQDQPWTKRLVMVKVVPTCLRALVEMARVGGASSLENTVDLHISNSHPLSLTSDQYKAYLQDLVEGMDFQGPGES
| Oligonucleotide | fitted relative affinity [z-score] |
| --- | --- |
| TTTTTTTTTTGTATTTTTGAGTGCTAG | 1.9 |
| GACGATCTCAGTATCGAGTCGTGCTAG | 1.25 |
| ATAACCTTGAACTTCGGCCTGTGCTAG | -0.229 |
| TCATGCTTCTGTATGGGACTGTGCTAG | -0.296 |
| TGCTGTGTGCATCTATCTTAGTGCTAG | -0.438 |
| GACGGACTGCTACTTCTGACGTGCTAG | -0.347 |
| TCAGTTTTGAGCTCTGTCTGGGTGCTA | 1.06 |
| GACGATTTAAGACTGGAGACGTGCTAG | 0.425 |
| GACGGTATCGACTTTCGAGACGTGCTA | 1.2 |
| TTAGGTTTCCTTTTCCTTCAGTGCTAG | 11.8 |

Further values, each from its own experiment
| Substance | target | test | test system | setting | scale | measurement | value |
| --- | --- | --- | --- | --- | --- | --- | --- |
| PhoQ, residues 284 288 289 292 302 303 AMDMFI | PhoP, residues 12 14 15 18 19 AYFRS (Escherichia coli, UniProt P23836) | Sort-seq, measured: YFP reporter | E. coli | PhoQ-PhoP variant library, with: 10 µM Mg2+ | relative to: high Mg2+ state, higher = stronger signaling | fold induction | 0.958 |

Repeated from above (study 2):
| Oligonucleotide | E-score |
| --- | --- |
| CGCTCCGA | 0.224 |
| CGAGCCCA | -0.0864 |
